Published values collected from several papers.
Each line is one published result; not all experiments were run side by side. “And” joins repeats or separate records; there may be more than shown. Numbers after ± are the reported error.
B1: CASP9 CARD domain (Homo sapiens, UniProt P55211); chain MDEADRRLLRRCRLRLVEELQVDQLWDALLSRELFRPHMIEDIQRAGSGSRRDQARQLIIDLETRGSQALPLFISCLEDTGQDMLASFLRTNRQAAKLS
Sequence of UniProt P48067 (whole entry, looked up): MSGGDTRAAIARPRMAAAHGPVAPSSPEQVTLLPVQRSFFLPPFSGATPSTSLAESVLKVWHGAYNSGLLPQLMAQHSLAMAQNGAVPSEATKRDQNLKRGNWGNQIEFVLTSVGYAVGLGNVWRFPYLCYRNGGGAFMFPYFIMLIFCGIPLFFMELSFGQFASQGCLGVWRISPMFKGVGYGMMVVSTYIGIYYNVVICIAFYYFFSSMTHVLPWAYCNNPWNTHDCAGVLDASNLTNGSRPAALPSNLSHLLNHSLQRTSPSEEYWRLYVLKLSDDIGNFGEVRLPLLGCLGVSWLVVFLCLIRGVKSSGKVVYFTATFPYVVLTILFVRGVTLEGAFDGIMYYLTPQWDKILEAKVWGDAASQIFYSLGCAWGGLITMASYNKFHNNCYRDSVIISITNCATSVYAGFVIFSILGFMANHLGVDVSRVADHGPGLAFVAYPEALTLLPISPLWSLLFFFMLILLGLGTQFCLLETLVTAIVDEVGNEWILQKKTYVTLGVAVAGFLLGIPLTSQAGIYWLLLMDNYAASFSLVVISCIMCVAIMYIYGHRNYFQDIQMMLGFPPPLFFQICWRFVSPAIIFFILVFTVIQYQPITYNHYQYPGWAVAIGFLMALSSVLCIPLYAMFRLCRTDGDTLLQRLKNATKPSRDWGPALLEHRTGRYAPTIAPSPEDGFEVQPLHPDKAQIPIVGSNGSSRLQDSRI
Sequence of UniProt Q64663 (whole entry, unmodified, looked up): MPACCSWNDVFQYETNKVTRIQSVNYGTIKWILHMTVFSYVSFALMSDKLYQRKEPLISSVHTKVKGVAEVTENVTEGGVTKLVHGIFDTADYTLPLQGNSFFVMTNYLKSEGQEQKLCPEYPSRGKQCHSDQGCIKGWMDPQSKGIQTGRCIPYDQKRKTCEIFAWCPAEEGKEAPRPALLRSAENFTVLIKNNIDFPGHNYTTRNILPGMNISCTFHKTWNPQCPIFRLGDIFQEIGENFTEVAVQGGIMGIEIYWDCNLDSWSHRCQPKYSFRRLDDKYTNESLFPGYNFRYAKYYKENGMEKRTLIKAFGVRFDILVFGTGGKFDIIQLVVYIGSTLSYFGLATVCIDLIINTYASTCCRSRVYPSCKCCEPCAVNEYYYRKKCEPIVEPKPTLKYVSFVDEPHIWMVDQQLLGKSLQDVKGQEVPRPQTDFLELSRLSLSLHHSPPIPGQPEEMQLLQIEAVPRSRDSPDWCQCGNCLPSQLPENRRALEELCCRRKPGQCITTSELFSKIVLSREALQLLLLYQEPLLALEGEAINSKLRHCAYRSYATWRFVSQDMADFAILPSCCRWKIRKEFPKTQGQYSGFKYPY

| Molecule | tested on | test | test system | setting | scale | measurement | result |
| --- | --- | --- | --- | --- | --- | --- | --- |
| human insulin | – | population PK model | healthy human | subcutaneous, 15 IU, euglycaemic glucose clamp | – | absorption rate constant 1 | 0.34 h⁻¹ |
| adrenomedullin | – | RP-HPLC | HALO Peptide ES-C18 column | 25 µM, formic acid/methanol, 10 min gradient | – | retention time | 8.14 min |
| pegcetacoplan | – | refers to: renal and urinary disorders | patients with PNH | dose not given, phase Ib trial | – | number of TEAEs | 3 |
| Neuropeptide Y | – | RP-HPLC | HALO RP-amide column | 25 µM, acetic acid/methanol, 25 min gradient | – | retention time | 17.2 min |
| Peginesatide | UT7/EPO | tyrosine phosphorylation, LC-MS/MS phosphoproteomics, GluC, refers to: MLLT4 tyrosine 1480 | – | 10 nM, 15 min, added: 10 U/mL EPO | baseline: vehicle | phosphorylation level | 9.6 fold |
| neuropeptide Y 3-35 | – | – | extracted samples in autosampler | 5 pM, 72 h, 10 °C | – | postpreparative stability | 65 % recovery |
| bcp C50S/C99S (Escherichia coli) | – | UV-vis, refers to: Cys45 | – | reduced, folded, numbering of the source | – | pKa | 6.16 |
| YEQDPWGVKWWY | – | – | peptide, mouse, CP model, serum | 0.154 µmol/kg, 4 weeks | – | serum ALT | no effect |
| insulin icodec | – | – | Japanese patients with type 1 diabetes, serum | geometric mean | – | dose-normalised Cmax at steady state | 91.2 (nmol/L)/(U/kg) |
| Pegcetacoplan | – | population PK model | human | subcutaneous | – | absorption rate constant, typical | 0.037 h⁻¹ |
| insulin degludec | – | – | human | subcutaneous, 0.4 IU/kg, 3 FC level, single dose, reference formulation | – | AUClast | 609 ± 74 ng·h/mL |
| colistin | Pseudomonas aeruginosa | – | clinical isolate RKI 597/16 | – | – | MIC | 1 mg/L |
| VMRLQSETSV | human SCRIB PDZ3-4 tandem (MBP fusion) | surface plasmon resonance | peptide | concentration not given | higher = stronger binding | normalised SPR binding response | 67 normalised RU |
| human insulin | – | ELISA | pig, anaesthetized, serum | jejunal wall, 20 IU, robotic ingestible pill | – | Tmax | 139 ± 42 min |
| ACEEQNPWARYLEWLFPTETLLLEL | – | ex vivo fluorescence imaging | peptide, BALB/c mice, 4T1 tumour-bearing | intravenous, 5 nmol, 2 h post-injection, background-corrected mean fluorescence | baseline: tumour over muscle | contrast index | 3.2 ± 0.9 |
| methyl-β-cyclodextrin | SLC6A9 (Homo sapiens, UniProt P48067) | transport activity, [3H]glycine uptake | – | 2.5 mg/mL, 1 min, added: glycine 600 µM | higher = more transport | glycine uptake rate | 50.7 a.u. and 63.3 a.u. and 66.6 a.u. and 67.4 a.u. and 61.9 a.u. |
| BzATP | P2X purinoceptor 7 (P2rx7, Rattus norvegicus, UniProt Q64663, Q143A/R125A) | ion current, agonist, two-electrode voltage clamp | Xenopus laevis oocytes | 3.7 µM | baseline: highest concentration response | normalized current | 0.0362 and 0.0363 and 0.0516 |

| Molecule | tested on | test | test system | setting | scale | measurement | result |
| --- | --- | --- | --- | --- | --- | --- | --- |
| insulin icodec | – | refers to: trough total compound | Chinese type 2 diabetes patients, serum | subcutaneous, once weekly | – | time to steady state | 3 to 4 weeks |
| insulin aspart | – | ELISA, refers to: total insulin aspart | human, type 1 diabetes, serum | subcutaneous, dose not given, least squares mean, single dose | – | time to early 50 % Cmax | 25.4 min |
| Ubiquitin fragment (Homo sapiens) | – | NMR, refers to: Lys6 | – | – | – | pKa | 10.5 |
| ACEQNPIYWARYADWLFTTPLLLLDLALLVDADEGT | – | ex vivo fluorescence imaging | peptide, BALB/c mice, 4T1 tumour-bearing, kidney | intravenous, 5 nmol, 2 h post-injection | higher = more uptake | mean fluorescence intensity | 1240 ± 182 a.u. |
| glucagon | – | shake-flask HPLC | 10 mM PBS | 2 h, pH 7.2 | – | thermodynamic solubility | 92.1 µM |
| CAMK2A C280S/C289S (Homo sapiens) | – | chemical modification, mass spectrometry, refers to: Cys6 | – | 37 °C, apparent, reduced thiol | – | pKa | 7.1 |
| insulin aspart | – | ELISA | human, younger adults with type 1 diabetes, serum | subcutaneous, 0.2 U/kg | – | AUC(0-t) | 669 pmol·h/L |
| insulin icodec | – | – | human moderate renal impairment | concentration not given | – | participants with adverse events | 50% |
| CAMK2A C6S/C280S (Homo sapiens) | – | chemical modification, mass spectrometry, refers to: Cys289 | – | 37 °C, apparent, reduced thiol | – | pKa | 9.2 |
| ACDDQNPWRAYLDLLFPTDTLLLDLLW | – | ex vivo fluorescence imaging | peptide, BALB/c mice, 4T1 tumour-bearing, 4T1 tumour | intravenous, 5 nmol, 24 h post-injection | higher = more uptake | mean fluorescence intensity | 2770 ± 600 a.u. |
| B1 (CASP9 CARD domain) | – | NMR, refers to: His38 | – | – | – | pKa | 6.03 |
| 11-deoxycorticosterone | CYP11B2 (human) | substrate binding, stopped-flow global kinetic fitting | purified enzyme | 3-state conformational selection model, added: 40-fold excess adrenodoxin | – | rate constant k-2 | 29.3 ± 1.49 s⁻¹ |
| FNA / CGLSGLGVA-NH2 ([18F]FNA-labelled, C-amide) | – | ex vivo gamma counting | peptide, healthy mouse, plasma | 60 min post injection | – | tissue uptake | 1.34 %ID/g |
| FGA (Homo sapiens, UniProt P02671) | CENPH (Homo sapiens, UniProt Q9H3R5) | cross-linking MS | – | added: DSSO | – | cross-linked residues | K238 to K58 |
| QSARYRDTEL | human SCRIB PDZ3-4 tandem (MBP fusion) | surface plasmon resonance | peptide | concentration not given | higher = stronger binding | normalised SPR binding response | 121 normalised RU |
| insulin glargine | – | LC-MS/MS | type 2 diabetic subjects, plasma | dose not given, 13 h, two other subjects | – | last measurable concentration | 37 pmol/L |

Excerpt of the above:
| Molecule | tested on | test | test system | setting | scale | measurement | result |
| --- | --- | --- | --- | --- | --- | --- | --- |
| pegcetacoplan | – | refers to: renal and urinary disorders | patients with PNH | dose not given, phase Ib trial | – | number of TEAEs | 3 |
| CAMK2A C280S/C289S (Homo sapiens) | – | chemical modification, mass spectrometry, refers to: Cys6 | – | 37 °C, apparent, reduced thiol | – | pKa | 7.1 |
| FGA (Homo sapiens, UniProt P02671) | CENPH (Homo sapiens, UniProt Q9H3R5) | cross-linking MS | – | added: DSSO | – | cross-linked residues | K238 to K58 |
| human insulin | – | population PK model | healthy human | subcutaneous, 15 IU, euglycaemic glucose clamp | – | absorption rate constant 1 | 0.34 h⁻¹ |
| ACDDQNPWRAYLDLLFPTDTLLLDLLW | – | ex vivo fluorescence imaging | peptide, BALB/c mice, 4T1 tumour-bearing, 4T1 tumour | intravenous, 5 nmol, 24 h post-injection | higher = more uptake | mean fluorescence intensity | 2770 ± 600 a.u. |
